{"data": "Measurements pooled from the literature", "note": "Parts stem from different laboratories: compare values within a part only. Positions count from the first letter of the parent shown."}
{"data": "Sample 1", "target": "Fragile X messenger ribonucleoprotein 1, C-terminal low-complexity region (Fmr1, Mus musculus, UniProt P35922)", "technique": "RNA Bind-n-Seq", "form": "RNA", "medium": "in vitro", "tested at": "200 nM", "notes": "whole 134-nt RNA, ends assumed", "together with": "150 mM LiCl", "baseline": "input library", "direction": "higher = stronger binding", "each molecule": "7-deaza-guanosine replaces G"}
{"Strand": "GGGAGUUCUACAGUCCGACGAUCGCAGGAAGUAAAAACAAAUGGAAAUGGUUCGGAUAGUGGCAGGGGUGGGGGUUGCUAAGGAAAGGGUGGGAUGGGAGUGGGUAAAGAGUUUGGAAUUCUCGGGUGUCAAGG", "log2 enrichment": 1.41}
{"Strand": "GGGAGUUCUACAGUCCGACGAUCAGUCCUGUGCUACACAUCGUAUGUACCGAAUCGGCCCCCCGGCCCCCCGGCCCCCCGGAAAGUAUUAUGUUACGCCGUUCGGAUCUGCACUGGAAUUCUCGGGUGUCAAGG", "log2 enrichment": 1.27}
{"Strand": "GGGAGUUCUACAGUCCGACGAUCAAGUCCUGUGCUACACAUCGUAUGUACCGAAUCGGGUUUUGGGGUUUUGGUUUUGGGAAAGUAUUAUGUUACGCCGUUCGGAUCUGCACUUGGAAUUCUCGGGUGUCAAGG", "log2 enrichment": -1.47}
{"Strand": "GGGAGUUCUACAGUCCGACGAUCGGAUUGGUAGCUUAUGUCGAUCUUGAUGAAAGAGCAAUUGAUGCUCUCAGGGAAUUUAAUGAAGAAGGAGCUCUGUCUGUACUACAGCAGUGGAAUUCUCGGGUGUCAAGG", "log2 enrichment": 0.282}
{"Strand": "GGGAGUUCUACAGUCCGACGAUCCUGUGCUACACAUCGUAUGUACCGAAUCGGGGAAAAAAAGGGGUUUUUUUGGGGUUUGGGGAAAGUAUUAUGUUACGCCGUUCGGAUCUGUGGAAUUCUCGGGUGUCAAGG", "log2 enrichment": -1.89}
{"Strand": "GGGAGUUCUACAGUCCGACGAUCGUAGGAAGUAAAAACAAAUGGAAAUGCUUCGGAUAGUGGCAGGGGUGGGGGUUGCUAAGGAAAGGGUGGGAUGGGAGUGGGUAAAGAGUUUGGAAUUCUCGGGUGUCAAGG", "log2 enrichment": 1.98}
{"Strand": "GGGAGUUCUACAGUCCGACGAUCUGGCCCUGGUGGCAUGCGGCGAGGAAGAGGUGGCCUCAUGGAUCGUGGUGGUCCCGGUGGAAUGUUCAGAGGUGGCCGUGGUGGAGACAGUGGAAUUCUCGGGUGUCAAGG", "log2 enrichment": -0.264}
{"Strand": "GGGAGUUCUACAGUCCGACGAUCUGUGCUACACAUCGUAUGUACCGAAUCGGGGUUUUUUUGGGGUUUUUUUGGGGAAAAAGGGGAAAGUAUUAUGUUACGCCGUUCGGAUCUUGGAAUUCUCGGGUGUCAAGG", "log2 enrichment": 0.172}
{"data": "Sample 2", "target": "CCNE2, cyclin fold, Cln2 fusion (human)", "technique": "yeast growth competition, sequencing", "medium": "yeast", "notes": "weak parent motif", "baseline": "not given", "direction": "higher = stronger binding", "parent": "viral docking peptide; PGASRRLFGSSAD; partner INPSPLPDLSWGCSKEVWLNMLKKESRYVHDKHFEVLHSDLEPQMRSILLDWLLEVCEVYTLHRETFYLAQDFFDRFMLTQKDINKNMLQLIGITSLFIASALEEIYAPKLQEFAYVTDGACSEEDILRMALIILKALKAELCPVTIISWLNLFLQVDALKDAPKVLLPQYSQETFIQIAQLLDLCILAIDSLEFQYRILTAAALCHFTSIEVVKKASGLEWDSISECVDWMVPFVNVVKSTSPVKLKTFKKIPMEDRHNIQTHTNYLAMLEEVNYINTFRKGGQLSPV"}
{"Variant": "PGASRRLLGSSAD [F8L]", "normalised enrichment score": 0.589}
{"Variant": "PGASRALFGSSAD [R6A]", "normalised enrichment score": -0.579}
{"Variant": "PGASRRLFGASAD [S10A]", "normalised enrichment score": 0.276}
{"Variant": "PGASRRLFASSAD [G9A]", "normalised enrichment score": 1.71}
{"Variant": "PAASRRLFGSSAD [G2A]", "normalised enrichment score": 0.539}
{"Variant": "PGAARRLFGSSAD [S4A]", "normalised enrichment score": 1.31}
{"data": "Sample 3", "target": "TAR DNA-binding protein 43, full length, His tag (TARDBP, Homo sapiens, UniProt Q13148, residues 1-414)", "technique": "RNA Bind-n-Seq", "form": "RNA", "medium": "in vitro", "tested at": "20 nM", "notes": "6-mer, flanks averaged, single round", "together with": "150 mM KCl", "baseline": "input library", "direction": "higher = stronger binding"}
{"Strand": "CAGCAC", "6-mer enrichment (R)": 0.713}
{"Strand": "ACCCUC", "6-mer enrichment (R)": 0.606}
{"Strand": "UGACGA", "6-mer enrichment (R)": 0.814}
{"Strand": "GGUUCG", "6-mer enrichment (R)": 1.46}
{"Strand": "CAACAG", "6-mer enrichment (R)": 0.744}
{"Strand": "UCAUCG", "6-mer enrichment (R)": 0.592}
{"Strand": "AAUCGG", "6-mer enrichment (R)": 0.881}
{"Strand": "GAUUGA", "6-mer enrichment (R)": 0.826}
{"data": "Further values, each from its own experiment", "parent": "PafA, mature enzyme, eGFP fusion (Elizabethkingia meningoseptica, UniProt Q9KJX5); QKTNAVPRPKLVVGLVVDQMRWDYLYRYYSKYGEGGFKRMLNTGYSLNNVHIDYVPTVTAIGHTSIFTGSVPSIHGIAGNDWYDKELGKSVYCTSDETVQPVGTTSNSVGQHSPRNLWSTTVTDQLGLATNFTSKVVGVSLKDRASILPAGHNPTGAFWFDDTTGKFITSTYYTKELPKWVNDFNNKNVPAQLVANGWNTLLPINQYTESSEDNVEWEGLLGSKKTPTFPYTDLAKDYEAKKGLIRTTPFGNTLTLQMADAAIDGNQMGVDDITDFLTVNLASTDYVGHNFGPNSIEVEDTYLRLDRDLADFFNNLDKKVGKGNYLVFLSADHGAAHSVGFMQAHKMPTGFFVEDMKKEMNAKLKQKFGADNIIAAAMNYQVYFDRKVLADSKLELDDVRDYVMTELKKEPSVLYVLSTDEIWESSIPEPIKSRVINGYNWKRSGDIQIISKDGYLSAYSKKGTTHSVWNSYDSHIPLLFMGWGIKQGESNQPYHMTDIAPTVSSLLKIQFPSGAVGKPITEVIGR"}
{"Variant": "P519V", "target": "tungstate, free oxyanion", "test": "microfluidic competitive inhibition", "system": "in vitro, cell-free expressed", "setting": "not given, derived from inhibition constants, unchanged parent 2230 nM", "how to read": "lower = stronger binding", "quantity": "oxyanion analog dissociation constant", "result": "2.36 µM"}
{"note": "Some of these lines once more (sample 2):"}
{"Variant": "PGASRRLLGSSAD [F8L]", "normalised enrichment score": 0.589}
{"Variant": "PGASRALFGSSAD [R6A]", "normalised enrichment score": -0.579}
